Results of several laboratories.
Compare with care: the assays were run in different laboratories. ± marks the error that the study gave.
Chain of UniProt Q14160 (whole entry, looked up): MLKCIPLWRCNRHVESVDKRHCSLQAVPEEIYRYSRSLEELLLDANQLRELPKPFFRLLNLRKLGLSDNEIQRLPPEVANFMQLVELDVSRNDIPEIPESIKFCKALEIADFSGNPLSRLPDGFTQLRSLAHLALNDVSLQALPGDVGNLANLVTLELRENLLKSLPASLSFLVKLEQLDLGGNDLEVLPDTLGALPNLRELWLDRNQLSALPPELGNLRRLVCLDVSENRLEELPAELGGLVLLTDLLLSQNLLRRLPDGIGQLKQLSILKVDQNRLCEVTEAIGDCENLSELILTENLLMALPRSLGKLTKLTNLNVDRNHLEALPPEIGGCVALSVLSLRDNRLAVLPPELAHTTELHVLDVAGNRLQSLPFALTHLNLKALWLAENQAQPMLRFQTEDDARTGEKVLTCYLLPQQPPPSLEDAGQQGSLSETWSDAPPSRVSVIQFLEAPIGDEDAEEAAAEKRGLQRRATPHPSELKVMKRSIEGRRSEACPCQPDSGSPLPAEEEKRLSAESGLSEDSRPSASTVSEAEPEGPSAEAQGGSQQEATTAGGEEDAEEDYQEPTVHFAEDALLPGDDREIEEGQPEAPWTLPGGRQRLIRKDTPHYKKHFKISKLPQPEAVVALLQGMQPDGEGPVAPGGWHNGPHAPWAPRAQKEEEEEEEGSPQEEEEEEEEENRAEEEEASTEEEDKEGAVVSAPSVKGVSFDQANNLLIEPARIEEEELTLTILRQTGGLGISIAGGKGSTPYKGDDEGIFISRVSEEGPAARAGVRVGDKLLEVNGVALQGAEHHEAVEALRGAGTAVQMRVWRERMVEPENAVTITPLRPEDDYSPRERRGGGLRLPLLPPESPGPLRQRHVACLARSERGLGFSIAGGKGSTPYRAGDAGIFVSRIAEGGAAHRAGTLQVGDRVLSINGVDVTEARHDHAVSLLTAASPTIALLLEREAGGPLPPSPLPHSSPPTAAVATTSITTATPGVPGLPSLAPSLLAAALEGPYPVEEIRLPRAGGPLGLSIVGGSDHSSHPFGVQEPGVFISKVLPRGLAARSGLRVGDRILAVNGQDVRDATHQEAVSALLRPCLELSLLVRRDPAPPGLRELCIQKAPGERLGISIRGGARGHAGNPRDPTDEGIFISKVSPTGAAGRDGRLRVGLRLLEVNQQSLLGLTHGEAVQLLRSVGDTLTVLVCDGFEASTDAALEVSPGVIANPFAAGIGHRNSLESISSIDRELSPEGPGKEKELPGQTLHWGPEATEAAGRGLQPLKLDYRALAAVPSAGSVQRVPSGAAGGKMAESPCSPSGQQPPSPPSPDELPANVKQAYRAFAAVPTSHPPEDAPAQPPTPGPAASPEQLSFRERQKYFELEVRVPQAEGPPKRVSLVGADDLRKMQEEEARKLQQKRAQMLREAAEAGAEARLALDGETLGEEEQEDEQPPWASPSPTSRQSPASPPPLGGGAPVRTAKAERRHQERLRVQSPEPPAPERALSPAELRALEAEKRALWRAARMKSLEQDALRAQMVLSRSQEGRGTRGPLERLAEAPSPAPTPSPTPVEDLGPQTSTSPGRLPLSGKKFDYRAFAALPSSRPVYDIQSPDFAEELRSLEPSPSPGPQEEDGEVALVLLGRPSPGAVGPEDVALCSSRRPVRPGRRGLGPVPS

With `O=P1(NCCCl)OCCCN1CCCl` (stereo not drawn) the activity score was 3.2 (human iPSC-derived cardiomyocytes; MyBP-C/MYH ratio, plate-normalised SD score; concentration not given, primary screen; direction not given).
`Cc1sc2c(c1C)C(c1ccc(Cl)cc1)=N[C@@H](CC(N)=O)c1nnc(C)n1-2` gave a viability of 14.6% (HBL-1; 1 µM, 120 h).
With `CC(C)C[C@H](NC(=O)[C@H](CCCNC(=N)N)NC(=O)[C@@H]1CCCN1C(=O)[C@H](Cc1c[nH]cn1)NC(=O)[C@H](CO)NC(=O)[C@@H]1CCCN1)C(=O)N[C@@H](CCC(N)=O)C(=O)N[C@H](C(=O)N[C@@H](Cc1c[nH]cn1)C(=O)N[C@H](C(=O)O)C(C)C)[C@@H](C)O` the Kd was 21.3 µM (Protein scribble homolog, PDZ3 domain (SCRIB, Homo sapiens, UniProt Q14160); binding, fluorescence polarization; solution; Scribble PDZ3 domain).
Under “grade 1 or 2 Dizzy”, `COc1cc2c(Oc3ccc4[nH]c(C)cc4c3F)ccnc2cc1OCC1(N)CC1` is recorded as 8.8% (paediatric recurrent refractory sarcoma; concentration not given, whole group).
Under “S phase cells”, `Cc1cc(C(C)(C)c2ccc(O)c(C)c2)ccc1O` is recorded as 8.88 ± 1.79% (HepG2 spheroids; Hoechst flow cytometry; 0.1 µM, 24 h).
Under “normalized enrichment score”, `C/C=C(/C)C(=O)O[C@H]1C(C)=C2[C@H]([C@@H]1OC(=O)CCCCCCC)[C@@](C)(OC(C)=O)C[C@H](OC(=O)CCC)[C@@]1(O)[C@H]2OC(=O)[C@@]1(C)O` is recorded as 0.925 (HEK-293T; RNA-seq GSEA, refers to: Hallmark EMT; 500 nM, 6 h; direction not given).
`COc1ccc2c(c1)[nH]c1c(C)nccc12` has a methylation reduction of 0% (DU-145; bisulfite pyrosequencing, refers to: RASSF1A promoter CpG site 4; concentration not given; baseline: vehicle).
The GI50 of `Nc1ncc(-c2nc(N3CCOCC3)nc(N3CCOCC3)n2)c(C(F)F)n1` is reported as 0.557 µM (T24; 72 h).
`CCN(CC)c1ccc(C=NNC(=O)CSc2nc3ccccc3c(=O)n2Cc2ccc(S(N)(=O)=O)cc2)c(O)c1` has a CC50 of greater than 100 µM (UO-31; NCI five-dose screen).
With `CC[C@H](C)[C@H](N)C(=O)N[C@@H](CC(C)C)C(=O)NCC(=O)N[C@@H](CCCCN)C(=O)N[C@H](C(=O)N[C@@H](Cc1c[nH]c2ccccc12)C(=O)N[C@@H](CCC(=O)O)C(=O)NCC(=O)N[C@H](C(=O)N[C@@H](CCCCN)C(=O)N[C@@H](CO)C(=O)N[C@@H](CC(C)C)C(=O)N[C@@H](Cc1ccccc1)C(=O)N[C@@H](CS)C(N)=O)[C@@H](C)CC)[C@@H](C)CC` the EC50 was greater than 100 µM (human red blood cells; pH 5.5; baseline: Triton X-100).
For `COc1cc(CCC[P+](c2ccccc2)(c2ccccc2)c2ccccc2)c(OC)c2c1OCO2.[I-]`, the GI50 was -5.5 log M (NCI-H322M; SRB).
`O=C1N(Cc2ccccc2Cl)c2ccccc2C12NN=C(c1ccccc1)S2` (stereo not drawn) has a fold change of 1.56 (MDA-MB-468; gene expression array, refers to: PHIP mRNA; 10 µM, 12 h; baseline: untreated, down).
`CO[C@H]1C[C@H](O[C@H]2CC[C@]3(C)[C@H]4CC[C@]5(C)[C@@H](C6=CC(=O)OC6)CC[C@]5(O)[C@@H]4CC[C@]3(O)C2)O[C@H](C)[C@H]1O[C@@H]1O[C@H](CO)[C@@H](O)[C@H](O)[C@H]1O` has an EC50 of 0.096 µM (PH5CH8; steatosis inhibition, high-content imaging; 72 h, together with: sodium oleate 1 mM).
`Cc1ncsc1-c1ccc(CNC(=O)[C@@H]2C[C@@H](O)CN2C(=O)[C@@H](NC(=O)C2(F)CC2)C(C)(C)C)c(OCCOc2ccc(CN3CCN(c4cc(-c5ccccc5O)nnc4N)CC3)cc2)c1`: “lost enhancer peaks” 43% (H1975 SMARCA4 wild type; ATAC-seq; 1 µM, 96 h).
With `COc1c(CCC[P+](c2ccccc2)(c2ccccc2)c2ccccc2)cc2c(c1OC)OCO2.[I-]` the TGI was -4.5 log M (NCI-H322M; SRB).
`CN1CCN(C2(CNC3CCN(c4cccc(-c5cc6cc(F)ccc6[nH]5)c4)CC3)CCC2)CC1` has a CC50 of 6.69 µM (NCI-H322M).
For `C=CC(=O)N[C@H]1C=C(C)c2c(-c3cnc4ccccc4c3)c3c(N)ncnc3n2C1`, the selectivity ratio was 0.547 (NCI-H2073 EGFR ASV knock-in; cell proliferation, CellTiter-Glo; baseline: knock-in over parental NCI-H2073).
`Nc1ncnc2c1ncn2[C@@H]1O[C@@H]2COP(=O)(O)O[C@H]3[C@@H](O)[C@H](n4cnc5c(=O)[nH]cnc54)O[C@@H]3COP(=O)(O)O[C@H]2[C@H]1O` — result for “pathway fold enrichment”: 41.3 (HFF-1; RNA sequencing, refers to: Endosomal/Vacuolar pathway; upregulated pathway; baseline: Zika virus alone).

A few entries again:
`CO[C@H]1C[C@H](O[C@H]2CC[C@]3(C)[C@H]4CC[C@]5(C)[C@@H](C6=CC(=O)OC6)CC[C@]5(O)[C@@H]4CC[C@]3(O)C2)O[C@H](C)[C@H]1O[C@@H]1O[C@H](CO)[C@@H](O)[C@H](O)[C@H]1O` has an EC50 of 0.096 µM (PH5CH8; steatosis inhibition, high-content imaging; 72 h, together with: sodium oleate 1 mM).
`Cc1ncsc1-c1ccc(CNC(=O)[C@@H]2C[C@@H](O)CN2C(=O)[C@@H](NC(=O)C2(F)CC2)C(C)(C)C)c(OCCOc2ccc(CN3CCN(c4cc(-c5ccccc5O)nnc4N)CC3)cc2)c1`: “lost enhancer peaks” 43% (H1975 SMARCA4 wild type; ATAC-seq; 1 µM, 96 h).
With `COc1c(CCC[P+](c2ccccc2)(c2ccccc2)c2ccccc2)cc2c(c1OC)OCO2.[I-]` the TGI was -4.5 log M (NCI-H322M; SRB).
